Experimental data collected from several papers.
Lines come from different studies, so protocols differ.

For `CCCCCCOC(=O)[C@]1(O)C[C@@H]2O[C@@]1(C)n1c3ccccc3c3c4c(c5c6ccccc6n2c5c31)C(=O)NC4`, “relative cell number” read 48.1% (SK-OV-3; ATP; 2D monolayer culture; 10 µM, 4 days; reference: untreated).
With `Cn1cc(CNCC2CCN(c3ncc(C(=O)NO)cn3)CC2)c2ccccc21` the inhibition was 91.9% (BT-16; cell viability, MTT; 10 µM, 72 h).
The sarcomere length of `CC(C)NCC(O)c1ccc(O)c(O)c1` (centres unmarked) is reported as 1.78 µm (mouse ventricular cardiomyocytes; dose not given, 0.219 s).
For `COc1cc([C@@H]2c3cc4c(cc3[C@@H](O[C@@H]3O[C@@H]5CO[C@@H](c6cccs6)O[C@H]5[C@H](O)[C@H]3O)[C@H]3COC(=O)[C@H]23)OCO4)cc(OC)c1O`, the inhibition was 89.6% (BT-16; cell viability, MTT; 10 µM, 72 h).
`CC(=O)Nc1cc(Oc2ccc3c(nc(Nc4ccc(F)cc4F)n3C)c2C)ccn1`: phosphorylation “inhibited” (MHHCALL4 cells; Western blot, item: JAK2, STAT5, STAT3; concentration not given).
`Cc1ncsc1-c1ccc(CNC(=O)[C@@H]2C[C@@H](O)CN2C(=O)[C@@H](NC(=O)CCCCCCCCCC(=O)N2CCN(CC[C@H](NC(=O)C3(N)CCN(c4ncnc5[nH]ccc45)CC3)c3ccc(Cl)cc3)CC2)C(C)(C)C)cc1`: “G2/M phase cells” 41.2% (PC-3; flow cytometry; concentration not given, 48 h).
`COc1cc2ncnc(Nc3ccc(Oc4ccccc4)c(C)c3C)c2cc1OC` has a viability of 95.7% (MeWo (NF1 mutant); resazurin; 0.3 µM, 72 h, with: trametinib; reference: DMSO).
`COc1cccc2c1C(=O)c1c(O)c3c(c(O)c1C2=O)C[C@@](O)(C(=O)CO)C[C@@H]3O[C@H]1C[C@H](N)[C@H](O)[C@H](C)O1` gave an Emax of 97.8% (NCI-H1299; cytotoxicity, WST-1; 72 h, highest tested concentration).
With `Cc1nn(-c2nc3c(F)cc(F)cc3s2)c(O)c1C(c1ccc(C(F)(F)F)cc1)c1c(C)nn(-c2nc3c(F)cc(F)cc3s2)c1O` the inhibition was 100% (RAW-ISG; IFN luciferase reporter; 80 µM, with: HT-DNA).
For `CN(C)c1ccc2cc(C(=O)NS(=O)(=O)c3ccccc3-c3ccccc3)oc2c1`, “persistence of H3K23ac decline” read no more than 48 h (ZR-75-1; Western blot; 1 µM).
`CC[C@]1(O)C[C@H]2CN(CCc3c([nH]c4ccccc34)[C@@](C(=O)OC)(c3cc4c(cc3OC)N(C=O)[C@H]3[C@@](O)(C(=O)OC)[C@H](OC(C)=O)[C@]5(CC)C=CCN6CC[C@]43[C@@H]65)C2)C1` has an inhibition of 86.7% (BT-16; cell viability, MTT; 10 µM, 72 h).
`Cn1cc(-c2ccc(-c3cncc(Cl)c3N3CCC4(CCNC4=O)CC3)cc2)cn1` — result for “log2 fold change”: 5.99 (COLO 205; gene expression, microarray, item: PRDM1 mRNA; concentration not given, 6 h; reference: untreated cells).
`COc1cnc2cccc(N3CCc4c(cc(Cn5ccnc5C)cc4-c4cn(C)nc4C(F)(F)F)C3=O)c2c1` gave an EC50 of greater than 30 µM (NCI-H1437; cell growth, inhibitor; 120 h).
The viability of `Nc1cccc2c1C(=O)N(C1CCC(=O)NC1=O)C2=O` (centres unmarked) is reported as 25% (MM1.S; XTT; 1 µM; reference: untreated).
`O=c1[nH]nc(OCCCc2ccc(Cl)cc2)c(NCc2cccnc2)c1Br`: “log2 fold change” -0.0172 (HEK293T; RNA-seq, item: HSPD1 mRNA; 10 µM, 6 h; reference: vehicle).
`CCn1cc(-c2cc(Cn3ccnc3)cc3c2CCN([C@H](c2cc(OC)ccn2)C2CC2)C3=O)c(C(F)(F)F)n1` has an EC50 of greater than 30 µM (MSTO-211H; cell growth, inhibitor; 120 h).
`C=CC(=O)N1CCC(Oc2cc3c(Nc4ccc(Cl)c(Cl)c4F)ncnc3cc2OC)CC1` has an IC50 of 0.00163 µM (NCI-H2073 ASV knock-in; cell proliferation, CellTiter-Glo; 72 h, geometric mean).
Under “log2 fold change”, `Cc1cc(Nc2ncc(Cl)c(Nc3ccccc3S(=O)(=O)C(C)C)n2)c(OC(C)C)cc1C1CCNCC1` is recorded as -4.19 (CLB-BAR; phosphoproteomics LC-MS/MS, item: ATXN1L phosphorylation; 200 nM, 60 min; reference: untreated).
The inhibition of `COC(=O)Nc1nc2ccc(C(=O)c3ccccc3)cc2[nH]1` is reported as 87.7% (BT-16; cell viability, MTT; 10 µM, 72 h).
`C=Cc1c2[n-]c(c1C)/C=c1\[n-]/c(c(C)c1C=C)=C\c1[n-]c(c(CCC(=O)O)c1C)/C=c1\[n-]c(c(C)c1CCC(=O)O)=C2.[Sn+4]` — result for “log2 fold change”: 2.01 (SH-SY5Y; RNA-seq, item: NEAT1; 5 µM, 5 h; reference: untreated).
